Published values gathered from unrelated publications.
Every numbered part comes from another study and shows a few of its results, in no order.

Sample 1 — method: protein-binding microarray; molecule type: double-stranded DNA, one strand shown; sample: in vitro; concentration: 2540 nM top; notes: 60-bp whole probe; together with: salmon DNA 0.4 mg/ml; relative to: random background probes; reading: higher = stronger binding; shared flanks, not repeated: GCCTAGCAC … GTCTTGATTCGCTTGACGCTGCTG
Target: Interferon regulatory factor 3, full length, phosphomimetic (IRF3, Homo sapiens, UniProt Q14653, residues 1-427, S386D/S396D/S398D/S402D/T404D/S405D)
Residues (chain): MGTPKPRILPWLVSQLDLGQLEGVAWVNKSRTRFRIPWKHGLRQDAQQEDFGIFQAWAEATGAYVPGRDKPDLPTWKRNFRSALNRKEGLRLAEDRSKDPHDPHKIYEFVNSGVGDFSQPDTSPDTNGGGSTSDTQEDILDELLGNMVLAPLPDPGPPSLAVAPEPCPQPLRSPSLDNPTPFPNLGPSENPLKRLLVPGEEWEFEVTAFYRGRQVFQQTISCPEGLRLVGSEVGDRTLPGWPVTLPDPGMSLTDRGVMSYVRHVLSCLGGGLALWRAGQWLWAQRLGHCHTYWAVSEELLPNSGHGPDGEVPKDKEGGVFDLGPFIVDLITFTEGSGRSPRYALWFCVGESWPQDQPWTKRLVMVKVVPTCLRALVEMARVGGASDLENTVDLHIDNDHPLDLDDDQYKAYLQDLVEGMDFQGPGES
Oligonucleotide | fitted relative affinity [z-score]
TTAGATATCAATCTCGATTAGTGCTAG | 0.808
TTAGGTCTCGGACCGGGTTAGTGCTAG | -0.436
TTAGGTATCAGGTTTCGGTTAGTGCTA | 4.92
GAGGATATCAGTCTCGAGACGTGCTAG | 0.561
TTATGACTGGGACTGGGTTAGTGCTAG | -0.762
GGCGGTATCGGACTGGGGACGTGCTAG | 1.41
TTAGATATCTTTTTCCTAATGTGCTAG | 2.17
TTAGGGATCCTTTTCCTTTAGTGCTAG | 6.65
ATGGAAATGCACCCCACGCTGTGCTAG | -0.157
GACGAACTGTGGTTTCGAGACGTGCTA | 1.14
GACGGTCTCATTATCCTGACGTGCTAG | 1.62
TCACTTTCAGTTCTCCCACTGTGCTAG | 6.35
TCATGTTTGTCCCTATTACTGTGCTAG | 0.659
TCAGTTTCTATTTTCTGACTGTGCTAG | 5.75
GACGGTCTCGGTATCGGTACGTGCTAG | 2.5
TTAGATATCGGTTTTCGATTAGTGCTA | 4.06
TTTGGAGTCATTCTCAACCCGTGCTAG | 0.787
TTAGGTTTCGCCTTTCGGTTAGTGCTA | 3.6
TTAGATTTCGGGTATCGAATAGTGCTA | 1.6
GACGGCCTCGGTTTCGGGACGTGCTAG | 1.8
TTTGAACTGGGGTATCGATTAGTGCTA | -0.217

Sample 2 — method: protein binding microarray; molecule type: double-stranded DNA, one strand shown; sample: in vitro; concentration: not given; relative to: not given; reading: higher = stronger binding
Target: Histone acetyltransferase KAT6A, winged helix 1, GST fusion (KAT6A, Homo sapiens, UniProt Q92794, residues 1-85)
Notes: 8-mer, flanks averaged, mean of 2 arrays, mostly near background
Residues (chain): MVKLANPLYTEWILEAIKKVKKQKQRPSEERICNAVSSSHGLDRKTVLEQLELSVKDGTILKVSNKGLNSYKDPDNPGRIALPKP
Oligonucleotide | E-score
GCGTGCCA | 0.206
TAAAGCCA | -0.2
ACAAGTCG | -0.145
AGGTGAGG | -0.13
GCAGGAAC | -0.144
AACGTCAC | -0.112
CCGAATAA | -0.107
ATGAATGG | -0.148
ACTGTGGA | -0.163
GGCGCTTA | 0.347
CGCTGGGC | 0.169
CAGAATAA | -0.154
CCGCGCCC | 0.41
TGAAGGAA | -0.163
GGCGGCAA | 0.355
ACACTCAT | -0.134
ATCAACCG | 0.0925
GAGTGGAC | -0.0888
TAACTTGA | -0.263
CGTGCCTA | -0.0261
AAGATCAC | -0.0908
ACCGCTGG | 0.139
GAATCCAC | -0.0744
AGGAAATA | -0.254

Sample 3 — method: RNA Bind-n-Seq; molecule type: RNA; sample: in vitro; concentration: 200 nM; notes: whole 134-nt RNA, ends assumed; together with: 150 mM LiCl; relative to: input library; reading: higher = stronger binding; each molecule: 7-deaza-guanosine replaces G
Target: Fragile X messenger ribonucleoprotein 1, C-terminal low-complexity region (Fmr1, Mus musculus, UniProt P35922)
Shared flanks, not repeated: GGGAGUUCUACAGUCCGACGAUC … UGGAAUUCUCGGGUGUCAAGG
Oligonucleotide | log2 enrichment
GCAGGAAGUAAAAACAAAUGGAAAUGCUUCGGAUAUUGGCAGGGGUGGGGGUUGCUAAGGAAAGGGUGGGAUGGGAGUGGGUAAAGAGUU | 1.65
UGUGCUACACAUCGUAUGUACCGAAUCGGGCCCCCCCGGGGCCCCCCCGGGGCCCCCCCGGGAAAGUAUUAUGUUACGCCGUUCGGAUCU | -2.01
GCAGGAAGUAAAAACAAAUGGAAAUGCUUCGGAUAGUGGCAGGGGUGGGGGUUGCUAAGGAAAGGGUGAGAUGGGAGUGGGUAAAGAGUU | 1.39
UGGAGAAGGAACGUGAUAAAGAAGUAAGCGAUGAUGAGGCUGAAGAAAAGGAAGACAAAGAAGAAGAAAAAGAAAAAGAAGAGAAAGAGU | 1.11
ACGAUGCAGGUGGGCAUCUUUGGGAAGUGGGGCAAGGGGGGGAUAGGGAGGGGGGUAACACUUUGGGAACAGGUGGUCCCAGGUCGUUUC | 1.42
GCAGGAAGUAAAAACAAAUGGAAAUGCUUCGGAUAGUGGCAGGGGUGGGGGUUGCUAAGGAAAGGGUGGGAUGGUAGUGGGUAAAGAGUU | 1.57
GGCAGUAGCAGCAGCGCCGGGUCCCGUGCGGAGGUGCUCCUCGCAGAGUUGUUUCUCGAGCAGCGGCAGUUCUCACUACAGCGCCAGGAC | -2.11
UCAAGUCCUGUGCUACACAUCGUAUGUACCGAAUCGGGAAGGAAGGGGAAGGGGAAAGUAUUAUGUUACGCCGUUCGGAUCUGCACUUCC | -0.566
GCAGGAAGUAAAAACAAAUGGAAAUGCUUCGGAUAGUGGCAGGGGUGGGGGUUGCUAAGGAAAGGGUGGGAUGGGACUGGGUAAAGAGUU | 1.22
GCAGGAAGUAAAAACAAAUAGAAAUGCUUCGGAUAGUGGCAGGGGUGGGGGUUGCUAAGGAAAGGGUGGGAUGGGAGUGGGUAAAGAGUU | 1.19
UCCCGGGCGCUAGCCCACCUCCCACCCGCCUCUUGGCUCCUCUCCUCUAGGCCGUCGCUUUCGGGUUCUCUCAUCGCUUCGUCGUUCGCC | 1.61

Sample 4 — method: RNA Bind-n-Seq; molecule type: RNA; sample: in vitro; concentration: 365 nM; relative to: no-protein control; reading: higher = stronger binding
Target: RNA binding protein fox-1 homolog 2, RRM domain, GST-SBP tag (RBFOX2, Homo sapiens, UniProt O43251-10, residues 100-194)
Notes: natural RNA segment, single round, ends assumed
Shared flanks, not repeated: GGGAGUUCUACAGUCCGACGAUC … UGGAAUUCUCGGGUGCCAA
Residues (chain): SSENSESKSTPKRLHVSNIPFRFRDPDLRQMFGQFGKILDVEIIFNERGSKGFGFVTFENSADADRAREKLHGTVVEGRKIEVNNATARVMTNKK
Oligonucleotide | RBNS enrichment (R)
UUAUUUUCCUCCACCCCACUUACUGUGAUGGGGCAAGGGAAGAACCCAGUCUUGUCCCCUGAAUUUUAUCUGUGUGCUGGGUGGCCUGGCUGAUGCAGAGGCCUGCUAAG | 0.543
UUGUGAAAUAGUAUCAUGUGAGAAACAGUUUGUAGAAAAAAACUAUACCUGGGAAGACCUUUGCAACAUUGUUCCUUCCAUGGGCCAAGACUCAGUUAGGAGGCAUAAAU | 0.32
UCCCUAACGGAAGCCCUAAAUCCCAGAGAGCUACAGGUCUGCUCCCCAUGGGCCCUCGGGCCUGACCAAUCCAGACGAGGCAGAGAGCAGCAGCGACUCAAGGGCCGUGU | 0.346
ACACGCACCCACACAGACACAGAGGGAAGGGGUUGGGAUGGGGACAGGGUGCACAGCAGGGCGGGGUAGGACCCCAGCCCCUCCCAAAACAGCCUCUCCUUCUCCCAUAG | 0.282
ACAAAGUGCAAUACAGAGCCUUCCCUACCCUGACGCCUCCCAGUCAUCAUCUCCAGAACUCCCAGCGGGGCUCCCUGAGCUCUCAAGGAGAUGCUGCCAUCACUGGGAGG | 0.528
AUAUCAAGUAACAAUAUGAUUAUUAUUUUUUUAUUCCCCCAAAGCGGGCUUGCUGCUUCACCCUUGGGGAUGAAAUAAUGGAAGCUGGUUAAAGUGGAUGAGGUUGGAAA | 0.431
CUGCUGGGGCCUGGCUGGGCCCAAAGCUCCAAGCCUCACUGCCUUCCUGGGGUCCUAAUUAACUCGGCCUACUCAAUGAGAACGUAACAUGCUUAUUGAAUGUAUAGCCG | 0.382
GUCCCUGAGACAUAAGCGAGGUAGAUUCAGCCAUCCUCACCCUCAGACUUGAGGUCCCCACCCAGGCCAAGCCGGCCCCCCGUACCCCUUGCCUGGGAGCAAACCGCCAG | 0.263
CCUGGACAACAAGAGCGAAACUCCGUCUUAGAAGUGGACCAGGACAGGACCAGAUUUUGGAGUCAUGGUCCGGUGUCCUUUUCACUACACCAUGUUUGAGCUCAGACCCC | 0.333
